Measured values pooled from the literature.
Each line is one published result; not all experiments were run side by side. ± marks the error that the study gave.

SMILES | test | system | setting | concentration
O=c1cc(-c2ccc(O)cc2)oc2c([C@@H]3OC[C@H](O)[C@H](O)[C@H]3O)c(O)c([C@@H]3O[C@H](CO)[C@@H](O)[C@H](O)[C@H]3O)c(O)c12 | UHPLC-MS/MS | C57BL/6J mouse, whole blood | oral, dose not given | 0.72 ng/g
O=C(N[C@H](Cc1c[nH]c2ccccc12)C(=O)Nc1ccncc1)c1ccc(N2CCN(c3ccc(F)cc3F)CC2)cc1F |  | Swiss Webster mouse, female, plasma | oral, 50 mg/kg, 2 h, 20% HPβCD vehicle | 10 nM
O=S(=O)(c1ccc(-c2ccc3nccc(Nc4ccncn4)c3c2)cc1)N1CCOCC1 |  | female BALB/c mouse, plasma | intraperitoneal, 10 mg/kg, 0.08 h | 1980 ng/mL
O=C(N[C@H](Cc1c[nH]c2ccccc12)C(=O)Nc1ccncc1)c1ccc(-c2ccc(F)c(Cl)c2)cc1F |  | Swiss Webster mouse, female, fat | oral, 50 mg/kg, 2 h, 20% HPβCD vehicle | 170 nM
COc1ccc2c3c([nH]c2c1)[C@H](CC(C)C)N1C(=O)[C@H](CC(=O)NC(C)C)NC(=O)[C@@H]1C3 |  | wild-type mouse, male, serum | oral, 100 mg/kg, 0 h | 0 nM
CN(C)C(=O)c1cc2cnc(Nc3ccc(-c4ccc5c(=O)cc(N6CCOCC6)oc5c4)cc3)nc2n1C1CCCC1 |  | BALB/c mouse, kidney | oral, 20 mg/kg, 24 h | 29.5 ± 7.5 ng/g
CSc1cc(Oc2ccnc3[nH]c(=O)cnc23)ccc1NC(=O)Nc1cc(C(C)(C)C)nn1-c1ccccc1 |  | NSG mouse (female), tumor | oral, 20 mg/kg, 1 h after last dose, end of therapy | 10000 nM
Cn1cc([C@H]2C[C@H]3CSC(N)=N[C@@]3(c3ccc(F)cc3F)CO2)cn1 |  | mouse 129/SVE male, brain | subcutaneous, 3 mg/kg, 3 h | 213 nM
CN1CCCC1CCNS(=O)(=O)c1ccc2c(c1)CN(CC1CCCCC1)CC2 (stereo not shown) |  | THY-Tau22 mouse, pons/cerebellum | oral in diet, 0.002% in diet, 6 months, sampled at 8 p.m. | 11.8 ng/g
CC(C)(C)c1cc(NC(=O)Nc2ccc(Oc3ccnc4[nH]c(=O)cnc34)cc2F)n(-c2ccccc2)n1 |  | nude mouse (female), plasma | oral, 20 mg/kg, 1 h after last dose, end of therapy | 53100 nM

Excerpt of the above:
SMILES | test | system | setting | concentration
CSc1cc(Oc2ccnc3[nH]c(=O)cnc23)ccc1NC(=O)Nc1cc(C(C)(C)C)nn1-c1ccccc1 |  | NSG mouse (female), tumor | oral, 20 mg/kg, 1 h after last dose, end of therapy | 10000 nM
